Assay results of several laboratories.
Each numbered part is a random draw from the data of one study; scales do not carry over between parts. Changes are numbered by the printed parent chain.

Set 1
Target: Histone acetyltransferase KAT6A, winged helix 2, GST fusion (KAT6A, Homo sapiens, UniProt Q92794, residues 85-181)
Technique: protein binding microarray
Form: double-stranded DNA, one strand shown
Sample: in vitro
Concentration: not given
Setting: 8-mer, flanks averaged, mean of 2 arrays, mostly near background
Baseline: not given
Direction: higher = stronger binding
Residues (chain): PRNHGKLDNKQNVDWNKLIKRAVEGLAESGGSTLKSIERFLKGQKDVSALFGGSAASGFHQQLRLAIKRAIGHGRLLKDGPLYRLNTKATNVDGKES
Strand	E-score
AGGGCGGG	0.237
CACAATAG	-0.0226
ACCCAAGG	-0.0407
CAGGCGGA	0.263
GATGCTAA	0.138
CCCTTCAG	-0.164
CGCAATGA	-0.0517

Set 2
Target: RNA binding protein fox-1 homolog 2, RRM domain, GST-SBP tag (RBFOX2, Homo sapiens, UniProt O43251-10, residues 100-194)
Technique: RNA Bind-n-Seq
Form: RNA
Sample: in vitro
Concentration: 365 nM
Setting: natural RNA segment, single round, ends assumed
Baseline: no-protein control
Direction: higher = stronger binding
Construct (chain): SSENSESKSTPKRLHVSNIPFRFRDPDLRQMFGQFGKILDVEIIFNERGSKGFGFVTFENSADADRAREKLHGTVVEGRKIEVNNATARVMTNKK
Strand	RBNS enrichment (R)
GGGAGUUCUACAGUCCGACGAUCAUCAGAAGACAUUGGAAAGAGGGAUUCCCUUUGGUGUUUGGUCUUCUACUUAGAAAAACCUAUUGCAGUUAGUUUAUCUUGUAGUAUUCAUCUUUGUAUUCUGAAGAUAAUGGAAUUCUCGGGUGCCAA	0.371
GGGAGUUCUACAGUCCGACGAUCAUGGUUCCUCUCCUAAAAGCCAUGGGCAGCAGUUUCCGAGGGCCUGCAUGAUCCACCUGCUGCACGAUCCUAUGAGGGCUUCCUGUGGCACACAGCCCUCUGGGUGCUUGUGGAAUUCUCGGGUGCCAA	19.7
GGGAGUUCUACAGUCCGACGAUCAUACAGAGGCAAGAUUUUAGGAGUUUGAAUUGGUUCUUGUUUGUUCUCAUUCUACAUAUAAUUUUGUUUAUUUCAGAUAAUUUUAUGUAAACAAAUUAAGAGUUAUUCAUUGGAAUUCUCGGGUGCCAA	0.94
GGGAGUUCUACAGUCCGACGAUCGAGGAGCUCUGAGGGGCAGGGAGCCUGGCCAGGCCUGAGACACAGAGGCCCACUGCGAGGGGGACAGUGGCGGUGGGACUGACCUGCUGACAGUCACCCUCCCUCUGCUGUGGAAUUCUCGGGUGCCAA	0.595
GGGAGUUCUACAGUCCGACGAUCCGCAGGCAUCUUGACAUCUUAGUAACUGCCUUUUUAAUCCCAGUGGCCUGUACCAUAUUAUGGAGAACUGUUAACUGCUUAAUUGGGUAAUUUUCAAAGAAAGUGAUGUUUGGAAUUCUCGGGUGCCAA	0.325
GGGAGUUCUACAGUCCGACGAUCUGGGAUUCUGUGUGUCCUCUGUGCUAGUAGUCCAGGACAGGAAUGUAAAGUCAGAAUGCGGGGCCAGGAGGGCCUCUUCCUCCCUCUUCCCUCCCAAGAAACCAGGUUGGUGGAAUUCUCGGGUGCCAA	2.68
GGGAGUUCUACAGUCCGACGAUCUGGCACUCUCAUGUUGGAACUUCUUUUGGGCUCAUGCUCAGGCCUUUUUUGGAUCACUAAGGACUAUGACCUCUGAGUAACCUGAUGACCUGAGAAAGAGUAAGGAGGCCUGGAAUUCUCGGGUGCCAA	0.39
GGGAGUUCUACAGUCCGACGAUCUGUUCCCUUUGUGUGUACGUUUCUCACCCCUUAACCACUUCAGUGUCAAAAAAGUUCCCAUUGUGUCUUCUGAAAGUGAAGUCCCAUAAGGAAGUUGGGAGAGAAUGUGCUGGAAUUCUCGGGUGCCAA	0.62
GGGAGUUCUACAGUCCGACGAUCACUGUACCUACCAUCUGCAUUGAGCAGAAAGACUUUUGUUUUACUGAAGACAAAAGAUGUUUUUAUUUUAGACCCAGAAGAGAGGAGUUUGCUCUGAAUUUGUAAAUAAGUGGAAUUCUCGGGUGCCAA	1.02
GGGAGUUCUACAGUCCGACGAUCCUUUAGAAGGGUGGUCUUUAUUCAGGUUUUACUGUAAUGGUAAGGAUUGACUCAAGAGACAGUAUUAGUAAAUUUAUUGUGUAUGGAUCAAAAGUGAAUAAUGUAUGAAUUGGAAUUCUCGGGUGCCAA	0.265

Set 3
Target: ABI1, truncated, D143A, DHFR fusion (Arabidopsis thaliana)
Technique: DHFR PCA, deep sequencing
Sample: yeast
Setting: methotrexate growth selection, single substitutions
Added: (+)-ABA 1.4 µM
Baseline: wild-type fitted maximum
Direction: higher = stronger binding
Parent: PYL1, truncated, DHFR fusion (Arabidopsis thaliana); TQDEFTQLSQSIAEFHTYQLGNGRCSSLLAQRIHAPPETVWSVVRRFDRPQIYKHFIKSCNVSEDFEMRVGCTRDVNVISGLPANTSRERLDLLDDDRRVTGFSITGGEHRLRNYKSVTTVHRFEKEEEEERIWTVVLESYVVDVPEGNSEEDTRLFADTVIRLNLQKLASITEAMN
Substitution	relative binding score
I52H	17.4%
R90A	1.64%
A30I	45.3%
I33W	16.2%
Y141E	-8.14%
N85Q	67.6%
T101I	73%
D92N	3.5%
G23S	27.1%
L112S	-9.21%

Further values, each from its own experiment
Molecule	target	assay	system	setting	how to read	quantity	value
PhoQ, residues 284 288 289 292 302 303 AMDMFI	PhoP, residues 12 14 15 18 19 LHHSG (Escherichia coli, UniProt P23836)	Sort-seq, measured: YFP reporter	E. coli	PhoQ-PhoP variant library, added: 10 µM Mg2+	baseline: high Mg2+ state, higher = stronger signaling	fold induction	0.713

A few entries again (further values, each from its own experiment):
Molecule	target	assay	system	setting	how to read	quantity	value
PhoQ, residues 284 288 289 292 302 303 AMDMFI	PhoP, residues 12 14 15 18 19 LHHSG (Escherichia coli, UniProt P23836)	Sort-seq, measured: YFP reporter	E. coli	PhoQ-PhoP variant library, added: 10 µM Mg2+	baseline: high Mg2+ state, higher = stronger signaling	fold induction	0.713
